Assay results from different studies.
Numbered parts are unrelated; each lists some results of a single study.

Study 1
Target: Histone acetyltransferase KAT6A, winged helix 2, GST fusion (KAT6A, Homo sapiens, UniProt Q92794, residues 85-181)
Technique: protein binding microarray
Form: double-stranded DNA, one strand shown
Matrix: in vitro
Concentration: not given
Notes: 8-mer, flanks averaged, mean of 2 arrays, mostly near background
Reference: not given
Direction: higher = stronger binding
Target sequence (chain): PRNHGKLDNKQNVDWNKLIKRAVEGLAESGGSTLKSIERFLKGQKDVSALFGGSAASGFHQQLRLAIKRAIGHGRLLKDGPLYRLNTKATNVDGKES
Oligonucleotide | E-score
ATAGACAA | -0.0455
GTTTAGGA | -0.167
CGTCTTTC | -0.0707
CGCCTAGA | -0.0264

Study 2
Target: Sal-like protein 4, full length isoform A (SALL4, Homo sapiens, UniProt Q9UJQ4, residues 1-1053)
Chain of UniProt Q9UJQ4 (whole entry, looked up): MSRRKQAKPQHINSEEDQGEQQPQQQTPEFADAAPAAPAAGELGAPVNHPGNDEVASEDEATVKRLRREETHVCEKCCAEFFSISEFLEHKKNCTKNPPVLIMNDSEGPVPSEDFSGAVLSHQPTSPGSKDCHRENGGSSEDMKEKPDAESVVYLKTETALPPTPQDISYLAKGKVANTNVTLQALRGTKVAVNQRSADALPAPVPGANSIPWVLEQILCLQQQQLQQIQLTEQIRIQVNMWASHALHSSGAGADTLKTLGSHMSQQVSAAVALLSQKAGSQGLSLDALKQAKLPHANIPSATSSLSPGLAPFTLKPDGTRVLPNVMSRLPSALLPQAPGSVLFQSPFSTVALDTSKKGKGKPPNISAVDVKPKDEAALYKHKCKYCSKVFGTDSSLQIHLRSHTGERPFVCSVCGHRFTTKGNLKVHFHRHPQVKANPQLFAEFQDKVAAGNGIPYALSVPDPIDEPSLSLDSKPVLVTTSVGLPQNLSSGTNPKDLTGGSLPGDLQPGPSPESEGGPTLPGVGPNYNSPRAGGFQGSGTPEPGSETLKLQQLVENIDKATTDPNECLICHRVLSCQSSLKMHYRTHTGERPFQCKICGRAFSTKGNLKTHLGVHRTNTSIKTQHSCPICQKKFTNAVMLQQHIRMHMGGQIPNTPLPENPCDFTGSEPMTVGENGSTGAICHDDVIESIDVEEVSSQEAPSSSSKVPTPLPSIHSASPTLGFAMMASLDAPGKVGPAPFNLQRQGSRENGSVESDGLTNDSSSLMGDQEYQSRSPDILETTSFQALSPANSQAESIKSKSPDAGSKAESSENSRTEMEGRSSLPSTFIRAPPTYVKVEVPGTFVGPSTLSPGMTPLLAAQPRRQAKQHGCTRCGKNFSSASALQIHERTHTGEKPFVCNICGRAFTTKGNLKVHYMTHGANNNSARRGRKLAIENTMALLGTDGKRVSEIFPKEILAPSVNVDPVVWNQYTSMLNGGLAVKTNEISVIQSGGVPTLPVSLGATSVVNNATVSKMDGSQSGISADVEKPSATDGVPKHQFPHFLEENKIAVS
Technique: universal PBM
Form: double-stranded DNA, one strand shown
Matrix: in vitro
Concentration: 600 nM
Notes: 8-mer, flanks averaged, mean of replicates
Direction: higher = stronger binding
Oligonucleotide | E-score
GAGGTCTA | -0.0967
GGAGCTGA | -0.249
CATTTTAG | 0.229
GCATACGC | -0.00553
CTTCCAAA | 0.232

Study 3
Target: Myc proto-oncogene protein, bHLH-zipper, MAX partner unstated (MYC, Homo sapiens, UniProt P01106, residues 368-449)
Chain of UniProt P01106 (368-449, looked up): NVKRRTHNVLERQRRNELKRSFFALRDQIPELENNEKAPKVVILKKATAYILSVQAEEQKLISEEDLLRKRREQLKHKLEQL
Technique: protein-binding microarray
Form: double-stranded DNA, one strand shown
Matrix: in vitro
Concentration: not given
Notes: k-mer, scored over probes, only values ≥0.25
Direction: higher = stronger binding
Oligonucleotide | E-score
ATGCATGA | 0.328
ACGCCGTG | 0.317
ATGGCATG | 0.358
CGTGTGGC | 0.394

Mixed results
Substance | target | assay | system | setting | scale | endpoint | result
PhoQ, residues 284 288 289 292 302 303 SMYGEC | PhoP, residues 12 14 15 18 19 TQALL (Escherichia coli, UniProt P23836) | Sort-seq, refers to: YFP reporter | E. coli | PhoQ-PhoP variant library, with: 10 µM Mg2+ | reference: high Mg2+ state, higher = stronger signaling | fold induction | 6.98

Some of these lines once more (study 1):
Oligonucleotide | E-score
ATAGACAA | -0.0455
GTTTAGGA | -0.167
